# Assay results gathered from unrelated publications.
# Compare with care: the assays were run in different laboratories. Several values in a cell are separate wells, animals, samples, runs or records. ± gives the spread as reported.
SMILES,target or system,assay,test system,setting,how to read,measurement,value
Cc1[nH]c(C)c(-c2ccc(-c3ccccc3C(F)(F)F)nc2)c(=O)c1Br,Plasmodium yoelii,,17XL,384-well,,IC50,984 ± 576 nM
OC(CCN1CCCCC1)(c1ccccc1)C1CC2C=CC1C2 (stereo not shown),,resting-state EEG,healthy elderly humans,"oral, 4 mg, eyes open, LS mean",,EEG Beta2-power Pz-O1,0.8 µV²
CCOC(=O)c1cn(CC)c2cc(N3CCCCCC3)c(F)cc2c1=O,Plasmodium yoelii,,17XL,384-well,,IC50,97 ± 14 nM
CC(C)n1ncc2c(C(=O)NCC3(C)CNC3)cc(C3CC3)nc21,enterovirus D68,,recombinant US/MO/14-18947 wild type,15000 nM,,plaque reduction,100%
Oc1ccccc1-c1n[nH]cc1-c1ccnc2ccccc12,FPK1 (Candida albicans),"kinase binding, MIB/MS competition",Candida albicans lysate,10 µM,relative to: DMSO,log2 fold change,0.37
CCOc1ccc2cc(-c3nn(CC4CCNCC4)c4ncnc(N)c34)ccc2c1,Theileria equi,hydroethidine flow cytometry,USDA Florida,"12 µM, 72 h",,% of maximum PPE,8.71%
C[C@H]1O[C@@H](O[C@H]2CC[C@@]3(C)[C@@H](CC[C@]4(C)[C@@H]3C=C[C@]35OC[C@@]6(CCC(C)(C)C[C@H]63)[C@@H](O)C[C@]54C)[C@]2(C)CO)[C@H](O)[C@@H](O[C@@H]2O[C@H](CO)[C@@H](O)[C@H](O)[C@H]2O)[C@H]1O,,,"chronic-plus-binge ethanol mice, plasma","oral, 10 mg/kg/day for 7 d, 168 h",,total cholesterol,1.92 mM and 1.57 mM and 1.49 mM and 1.75 mM and 1.42 mM
CCOc1ccc2cc(-c3nn(CC4CCN(C)CC4)c4ncnc(N)c34)ccc2c1,Theileria equi,hydroethidine flow cytometry,USDA Florida,"3 µM, 72 h",,% of maximum PPE,73.3%
COc1ccc(F)cc1C(=O)NCc1ccc(-c2nn([C@@H](C)C(F)(F)F)c(N)c2C(N)=O)cc1,MEK1/MEK2 human,"probe binding, competitive chemoproteomics",live human PBMCs,10 µM,,inhibition,> 50%
CC(C)NCC(O)c1ccc(O)c(O)c1 (stereo not shown),,,"ventricular cardiomyocytes, C57BL/6 mouse","dose not given, 0.056 s",,sarcomere length,1.72 µm
c1coc(-c2n[nH]cc2-c2ccnc3ccccc23)c1,FPK1 (Candida albicans),"kinase binding, MIB/MS competition",Candida albicans lysate,1 µM,relative to: DMSO,log2 fold change,-0.23
O=C(O)CNC(=O)Cc1ccccc1,,,"ventricular cardiomyocytes, C57BL/6 mouse","dose not given, 0.272 s",,sarcomere length,1.67 µm
CC1=NN(c2ccc(C(=O)O)cc2)C(=O)/C1=C\c1ccc(-c2cc(C)c(C)cc2[N+](=O)[O-])o1,HBL-1,,,"0.5 µM, 120 h",,viability,122%
CCOC(=O)c1c(-c2ccccc2)nc2c(sc3ccccc32)c1O,Plasmodium yoelii,,17XL,384-well,,IC50,102 ± 21 nM
Nc1ncn([C@@H]2O[C@H](CO)[C@@H](O)[C@H]2O)c(=O)n1,HBL-1,,,"0.5 µM, 120 h",,viability,123%
Cc1[nH]c(C)c(-c2ccc(-c3ccccc3Cl)nc2)c(=O)c1Br,Plasmodium yoelii,,17XL,384-well,,IC50,463 ± 139 nM
C[C@]12CC[C@@H]3c4ccc(O)cc4C[C@@H](CCCCCCCCC[S+]([O-])CCCC(F)(F)C(F)(F)F)[C@H]3[C@@H]1CC[C@@H]2O (stereo partly shown),,,female nude mouse LCC2 xenograft,"2.0 mg/kg, day 5, tamoxifen-resistant",,tumour volume,47 mm3 and 30.9 mm3 and 52.1 mm3 and 65.1 mm3 and 41.9 mm3 and 29.6 mm3 and 63.1 mm3
COc1ccc(C#Cc2ccc(-c3c(C)[nH]c(C)c(Cl)c3=O)cc2)cc1,Plasmodium yoelii,,17XL,384-well,,IC50,290 ± 120 nM
O=C(Nc1cccc(C2=NCCN2)c1)Nc1cccc(C2=NCCN2)c1,Theileria equi,"parasite growth, flow cytometry","horse erythrocytes, USDA Florida strain","0.172 µM, 72 h",,inhibition,10.1%
Cc1[nH]cc(Br)c(=O)c1-c1ccc(Oc2ccc(OC(F)(F)F)cc2)cc1,Plasmodium yoelii,,17XL,384-well,,IC50,155 ± 3 nM
NC(=O)c1cnc2[nH]ccc2c1N[C@@H]1[C@@H]2CC3C[C@H]1C[C@@](O)(C3)C2,,flow cytometry,"Japanese healthy men, blood","oral, 30 mg twice daily, 72 h after day 7 dose",relative to: baseline,CD8+ memory T-cell change,0.57%
O=C(Nc1ccccc1O)c1ccc(S(=O)(=O)c2ccc(Cl)cc2)cc1,Plasmodium yoelii,,17XL,384-well,,IC50,8190 ± 1260 nM
CCOc1ccc2cc(-c3nn(CC4CCN(C)CC4)c4ncnc(N)c34)ccc2n1,Theileria equi,"parasite growth, hydroethidine flow cytometry",USDA Florida,72 h,,EC50,6930 nM
Cc1[nH]c(C)c(-c2ccc(-c3cc(C(F)(F)F)cc(C(F)(F)F)c3)nc2)c(=O)c1Br,Plasmodium yoelii,,17XL,384-well,,IC50,92 ± 65 nM
CC(=O)ON=C1C=CC(=C(C#N)c2ccccc2)C=C1,pig CK1 delta/epsilon,"enzyme activity, inhibitor, ADP-Glo",,"2 µM, about MIC/10, with: ATP 10 µM",,remaining activity,78%

# Excerpt of the above:
SMILES,target or system,assay,test system,setting,how to read,measurement,value
CC(=O)ON=C1C=CC(=C(C#N)c2ccccc2)C=C1,pig CK1 delta/epsilon,"enzyme activity, inhibitor, ADP-Glo",,"2 µM, about MIC/10, with: ATP 10 µM",,remaining activity,78%
C[C@]12CC[C@@H]3c4ccc(O)cc4C[C@@H](CCCCCCCCC[S+]([O-])CCCC(F)(F)C(F)(F)F)[C@H]3[C@@H]1CC[C@@H]2O (stereo partly shown),,,female nude mouse LCC2 xenograft,"2.0 mg/kg, day 5, tamoxifen-resistant",,tumour volume,47 mm3 and 30.9 mm3 and 52.1 mm3 and 65.1 mm3 and 41.9 mm3 and 29.6 mm3 and 63.1 mm3
CC1=NN(c2ccc(C(=O)O)cc2)C(=O)/C1=C\c1ccc(-c2cc(C)c(C)cc2[N+](=O)[O-])o1,HBL-1,,,"0.5 µM, 120 h",,viability,122%
